# Results of several laboratories.
# Each numbered part is a random draw from the data of one study; scales do not carry over between parts.

# Block 1 — technique: universal PBM; molecule type: double-stranded DNA, one strand shown; matrix: in vitro; tested at: not given; direction: higher = stronger binding
# Target: Sal-like protein 4, full length isoform B (SALL4, Homo sapiens, UniProt Q9UJQ4-2, residues 1-616)
# Setting: 8-mer, flanks averaged, mean of replicates
# Residues (chain): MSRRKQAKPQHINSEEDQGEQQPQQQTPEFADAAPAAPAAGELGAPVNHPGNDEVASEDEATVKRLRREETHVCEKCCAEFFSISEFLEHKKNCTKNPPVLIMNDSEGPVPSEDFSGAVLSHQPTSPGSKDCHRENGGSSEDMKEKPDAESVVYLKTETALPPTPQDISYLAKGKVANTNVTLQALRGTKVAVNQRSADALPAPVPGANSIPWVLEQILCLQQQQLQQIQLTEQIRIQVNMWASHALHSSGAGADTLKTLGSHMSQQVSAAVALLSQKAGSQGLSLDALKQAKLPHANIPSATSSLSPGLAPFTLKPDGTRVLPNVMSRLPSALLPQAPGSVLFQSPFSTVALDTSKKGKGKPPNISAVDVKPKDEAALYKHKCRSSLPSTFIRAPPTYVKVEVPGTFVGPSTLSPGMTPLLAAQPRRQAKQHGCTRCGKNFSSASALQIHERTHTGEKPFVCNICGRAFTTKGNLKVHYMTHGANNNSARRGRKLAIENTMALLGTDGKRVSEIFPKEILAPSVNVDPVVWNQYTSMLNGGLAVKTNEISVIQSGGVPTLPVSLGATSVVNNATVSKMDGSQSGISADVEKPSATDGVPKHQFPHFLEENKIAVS
Sequence,E-score
AAATGAGT,0.255
TCGAGACA,-0.0329
GGTCCAAC,-0.229
CGCAGCGA,-0.317
CCACACCG,-0.204
ACACAACA,0.187
AGAATAAG,0.215
CAACGTAA,0.0996
CGCCCCGA,-0.405
ACCGCTAT,0.00194

# Block 2 — technique: competition protein-binding microarray; molecule type: double-stranded DNA, one strand shown; matrix: in vitro; tested at: 2 µM; with: Cbf1 competitor, 0.05 µM; direction: higher = stronger binding; shared flanks, not repeated: … GTCTTGATTCGCTTGACGCTGCTG
# Target: Phosphate system positive regulatory protein PHO4, full length, GST-tagged (PHO4, Saccharomyces cerevisiae, UniProt P07270, residues 1-312)
# Setting: whole 60-bp probe, lowest competitor level
# Construct (chain): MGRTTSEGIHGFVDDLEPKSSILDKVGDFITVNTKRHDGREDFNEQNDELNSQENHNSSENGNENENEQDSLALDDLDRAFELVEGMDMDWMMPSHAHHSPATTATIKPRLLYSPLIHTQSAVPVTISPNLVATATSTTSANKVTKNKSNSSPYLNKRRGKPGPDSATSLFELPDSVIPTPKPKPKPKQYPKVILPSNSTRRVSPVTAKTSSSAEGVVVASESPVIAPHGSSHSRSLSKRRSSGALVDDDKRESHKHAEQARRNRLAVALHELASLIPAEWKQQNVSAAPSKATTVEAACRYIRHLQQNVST
Sequence,fluorescence intensity
CTTCTGTAAATTTGGGGTGTGGGTGGACGCGCCCCG,6220 a.u.
ACTCCATATCCTTATCATGTGCCGTAGTACATTGTG,11600 a.u.
CATACCCAACCTTGTCACCCCACTTAAGATATTTGT,4320 a.u.
AAATTACTAAGTTTTCACGTGCGGTACCCCGTATGA,14300 a.u.
GCCAGGGTGCGCTGGCACGCAGGGTAAGAGCCGCAA,6740 a.u.
GAAAATTGCCGTTGTCATGCTGAGCATTTGTCGTAC,4490 a.u.
TCTGAGGGACAATGGCGCGTGATGGGCCAGAGACAT,7840 a.u.

# Block 3 — technique: protein-binding microarray; molecule type: double-stranded DNA, one strand shown; matrix: in vitro; tested at: 2200 nM top; setting: 60-bp whole probe; with: salmon DNA 0.4 mg/ml; baseline: random background probes; direction: higher = stronger binding; shared flanks, not repeated: GCCTAGCAC … GTCTTGATTCGCTTGACGCTGCTG
# Target: Interferon regulatory factor 7, full length, phosphomimetic (IRF7, Homo sapiens, UniProt Q92985, residues 1-503, S471D/S472D/S475D/S476D/S477D/S483D/S484D/S487D)
# Target sequence (chain): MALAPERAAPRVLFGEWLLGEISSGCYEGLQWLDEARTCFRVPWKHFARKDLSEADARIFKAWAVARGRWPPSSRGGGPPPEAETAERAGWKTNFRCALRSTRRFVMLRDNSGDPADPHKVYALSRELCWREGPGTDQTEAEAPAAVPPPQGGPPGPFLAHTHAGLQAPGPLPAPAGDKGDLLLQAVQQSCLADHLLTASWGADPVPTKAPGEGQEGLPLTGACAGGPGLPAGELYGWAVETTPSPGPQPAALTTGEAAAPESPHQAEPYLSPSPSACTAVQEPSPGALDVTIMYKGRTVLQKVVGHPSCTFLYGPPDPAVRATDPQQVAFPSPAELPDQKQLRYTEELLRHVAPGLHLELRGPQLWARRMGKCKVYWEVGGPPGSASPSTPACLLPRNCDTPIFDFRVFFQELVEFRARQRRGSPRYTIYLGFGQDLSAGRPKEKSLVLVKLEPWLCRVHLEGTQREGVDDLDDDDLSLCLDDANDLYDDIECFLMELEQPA
Sequence,fitted relative affinity [z-score]
GACGGTTTCGGGTTGCGGGACGTGCTA,12.1
TTAGGACTGGTACTGCTTTAGTGCTAG,-0.245
CTACGCCTGCAGGTGAGCCGGTGCTAG,-0.196
GTTTTTTAAAGTTTCAGTGAGTGCTAG,0.546
TTAGATTTCAGTATCGACTAGTGCTAG,0.977
GACGATTTAAGTTCCGAGACGTGCTAG,0.46
TTAGGTTTCGACACTAGGTTAGTGCTA,1.83
ATAGATCTCAGACTGGATTAGTGCTAG,0.113
CCGTAGCTTCCTTTCGCCGCGTGCTAG,1.3
TTAGGTTTCGGGTTTCGCTTAGTGCTA,9.45
TTAGGGTTCGGGACTGGGTTAGTGCTA,-0.25

# Other studies, line by line
Substance,target,test,system,conditions,how to read,measurement,result
"PhoQ, residues 284 288 289 292 302 303 SLSLLA","PhoP, residues 12 14 15 18 19 NHTVL (Escherichia coli, UniProt P23836)","Sort-seq, refers to: YFP reporter",E. coli,"PhoQ-PhoP variant library, with: 10 µM Mg2+","baseline: high Mg2+ state, higher = stronger signaling",fold induction,2.88

# For quick reference, copied from above (block 1):
Sequence,E-score
ACACAACA,0.187
AGAATAAG,0.215
CAACGTAA,0.0996
